Experimental data of several laboratories.
Each line is one published result; not all experiments were run side by side. Numbers after ± are the reported error.
Target: Dual specificity mitogen-activated protein kinase kinase 2 (MAP2K2, Homo sapiens, UniProt P36507)
Chain of UniProt P36507 (whole entry, looked up): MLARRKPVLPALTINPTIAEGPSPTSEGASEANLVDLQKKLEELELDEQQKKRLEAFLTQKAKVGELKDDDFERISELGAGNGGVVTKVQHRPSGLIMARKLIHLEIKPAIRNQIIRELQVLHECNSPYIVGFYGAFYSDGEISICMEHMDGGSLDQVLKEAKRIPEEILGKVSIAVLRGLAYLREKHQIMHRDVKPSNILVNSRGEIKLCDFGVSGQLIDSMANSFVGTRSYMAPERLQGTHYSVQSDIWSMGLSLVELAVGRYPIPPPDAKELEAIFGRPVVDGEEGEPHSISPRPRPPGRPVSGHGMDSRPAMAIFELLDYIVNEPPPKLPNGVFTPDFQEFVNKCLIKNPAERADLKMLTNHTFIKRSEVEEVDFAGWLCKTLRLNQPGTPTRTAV

SMILES | assay | setting | scale | measurement | result
O=C1NC(=O)/C(=C/c2ccc(-c3ccc(F)cc3O)o2)S1 | enzyme activity | 10 µM |  | remaining activity | 77%
CC/C(=N\NC(=O)NCc1cccc(O)c1)c1ccc(O)c(C)c1O | kinase activity | 0.1 µM |  | inhibition | -1.7%
CNc1ncc2c(/C=C/C(=O)N3CCC(OC)CC3)nn(Cc3cccc(C(F)(F)F)c3)c2n1 | kinase activity, inhibitor | 1 µM | baseline: untreated control | remaining activity | 84%
CC#CC(=O)N1CCC[C@H]1c1nc(-c2ccc(C(=O)Nc3ccccn3)cc2)c2c(N)nccn12 | kinase activity, inhibitor, HotSpot radiometric | 100 nM, added: ATP 10 µM |  | remaining activity | 94.5 ± 1.7%
O=C(NC1CCC1)c1ccc2nc(-c3cccc(NS(=O)(=O)NCCN4CCCCC4)c3)cn2c1 | enzyme activity | 10 µM |  | remaining activity | 89%
COc1ccc(F)cc1C(=O)NCc1ccc(-c2nn([C@@H](C)C(F)(F)F)c(N)c2C(N)=O)cc1 | kinase activity, inhibitor, HotSpot radiometric | 1000 nM, added: ATP at Km |  | remaining activity | 7.6 ± 0.6%
[2H]c1cc(C)c(NC(=O)c2cnc(Nc3cc(N4CCCCC4)nc(C)n3)s2)c(Cl)c1 |  | 0.01 µM |  | inhibition | < 30%
c1cnc2ccc(Nc3nc(NC4CC4)c4nc[nH]c4n3)cc2c1 | kinase activity, inhibitor, SelectScreen kinase profiling | 1 µM | baseline: control | remaining activity | 83%

A few entries again:
SMILES | assay | setting | scale | measurement | result
c1cnc2ccc(Nc3nc(NC4CC4)c4nc[nH]c4n3)cc2c1 | kinase activity, inhibitor, SelectScreen kinase profiling | 1 µM | baseline: control | remaining activity | 83%
